Measured values pooled from the literature.
A part holds a random share of what one study measured. “And” joins repeats or separate records; there may be more than shown.
Chain of UniProt P05771 (whole entry, looked up): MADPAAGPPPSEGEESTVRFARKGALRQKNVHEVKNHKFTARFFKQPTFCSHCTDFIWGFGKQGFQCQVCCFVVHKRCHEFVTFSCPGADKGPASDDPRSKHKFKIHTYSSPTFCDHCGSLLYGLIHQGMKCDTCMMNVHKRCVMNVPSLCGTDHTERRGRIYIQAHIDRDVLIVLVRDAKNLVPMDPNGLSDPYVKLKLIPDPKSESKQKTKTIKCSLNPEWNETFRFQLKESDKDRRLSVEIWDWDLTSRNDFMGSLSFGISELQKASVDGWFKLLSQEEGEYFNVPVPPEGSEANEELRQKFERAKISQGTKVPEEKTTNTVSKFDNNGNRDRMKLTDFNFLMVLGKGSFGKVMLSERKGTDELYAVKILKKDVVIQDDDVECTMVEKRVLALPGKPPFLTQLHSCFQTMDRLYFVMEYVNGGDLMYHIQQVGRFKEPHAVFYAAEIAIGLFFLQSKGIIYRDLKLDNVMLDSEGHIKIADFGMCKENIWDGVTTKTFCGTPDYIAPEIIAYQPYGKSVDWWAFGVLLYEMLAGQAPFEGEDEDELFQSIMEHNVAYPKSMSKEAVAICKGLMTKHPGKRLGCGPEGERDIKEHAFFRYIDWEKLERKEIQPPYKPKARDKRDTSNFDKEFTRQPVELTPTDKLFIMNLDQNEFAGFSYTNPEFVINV
Chain of UniProt P29323 (whole entry, looked up): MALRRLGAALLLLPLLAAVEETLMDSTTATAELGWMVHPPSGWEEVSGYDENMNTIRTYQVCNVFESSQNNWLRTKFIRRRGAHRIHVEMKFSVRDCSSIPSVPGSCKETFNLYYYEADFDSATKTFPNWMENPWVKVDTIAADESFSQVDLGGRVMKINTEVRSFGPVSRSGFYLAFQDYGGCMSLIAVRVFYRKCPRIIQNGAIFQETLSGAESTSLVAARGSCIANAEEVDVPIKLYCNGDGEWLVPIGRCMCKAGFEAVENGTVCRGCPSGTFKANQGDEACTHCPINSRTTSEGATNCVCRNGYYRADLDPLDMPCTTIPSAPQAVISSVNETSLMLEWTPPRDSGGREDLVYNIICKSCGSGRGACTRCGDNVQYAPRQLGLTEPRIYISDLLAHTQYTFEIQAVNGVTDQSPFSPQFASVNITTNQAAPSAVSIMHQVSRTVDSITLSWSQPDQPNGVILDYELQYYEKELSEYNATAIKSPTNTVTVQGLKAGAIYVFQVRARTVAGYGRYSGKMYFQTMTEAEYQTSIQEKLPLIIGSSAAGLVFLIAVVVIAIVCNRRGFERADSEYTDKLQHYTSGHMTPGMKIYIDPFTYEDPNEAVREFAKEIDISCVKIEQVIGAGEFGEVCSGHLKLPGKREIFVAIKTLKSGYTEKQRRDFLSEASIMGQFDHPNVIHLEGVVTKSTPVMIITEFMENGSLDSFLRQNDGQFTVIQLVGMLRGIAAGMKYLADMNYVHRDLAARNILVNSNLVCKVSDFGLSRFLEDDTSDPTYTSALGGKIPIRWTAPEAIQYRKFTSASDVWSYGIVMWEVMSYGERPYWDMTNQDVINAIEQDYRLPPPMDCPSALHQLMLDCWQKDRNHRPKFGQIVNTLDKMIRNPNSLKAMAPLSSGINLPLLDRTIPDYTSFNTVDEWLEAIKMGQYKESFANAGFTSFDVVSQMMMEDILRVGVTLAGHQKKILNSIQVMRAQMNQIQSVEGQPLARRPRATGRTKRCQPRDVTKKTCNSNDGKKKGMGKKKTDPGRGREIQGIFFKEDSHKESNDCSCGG
Chain of UniProt Q9UIK4 (whole entry, looked up): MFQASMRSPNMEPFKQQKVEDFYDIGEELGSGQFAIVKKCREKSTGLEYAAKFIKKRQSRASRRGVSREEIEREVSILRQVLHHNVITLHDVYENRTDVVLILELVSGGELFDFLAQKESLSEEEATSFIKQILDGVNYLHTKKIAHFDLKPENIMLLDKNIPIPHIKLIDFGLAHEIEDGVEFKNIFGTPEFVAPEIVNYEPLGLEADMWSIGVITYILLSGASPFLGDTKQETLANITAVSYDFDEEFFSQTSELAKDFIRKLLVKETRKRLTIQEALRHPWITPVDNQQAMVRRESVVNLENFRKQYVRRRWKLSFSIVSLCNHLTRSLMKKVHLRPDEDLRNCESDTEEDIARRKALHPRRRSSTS
Chain of UniProt O94804 (whole entry, looked up): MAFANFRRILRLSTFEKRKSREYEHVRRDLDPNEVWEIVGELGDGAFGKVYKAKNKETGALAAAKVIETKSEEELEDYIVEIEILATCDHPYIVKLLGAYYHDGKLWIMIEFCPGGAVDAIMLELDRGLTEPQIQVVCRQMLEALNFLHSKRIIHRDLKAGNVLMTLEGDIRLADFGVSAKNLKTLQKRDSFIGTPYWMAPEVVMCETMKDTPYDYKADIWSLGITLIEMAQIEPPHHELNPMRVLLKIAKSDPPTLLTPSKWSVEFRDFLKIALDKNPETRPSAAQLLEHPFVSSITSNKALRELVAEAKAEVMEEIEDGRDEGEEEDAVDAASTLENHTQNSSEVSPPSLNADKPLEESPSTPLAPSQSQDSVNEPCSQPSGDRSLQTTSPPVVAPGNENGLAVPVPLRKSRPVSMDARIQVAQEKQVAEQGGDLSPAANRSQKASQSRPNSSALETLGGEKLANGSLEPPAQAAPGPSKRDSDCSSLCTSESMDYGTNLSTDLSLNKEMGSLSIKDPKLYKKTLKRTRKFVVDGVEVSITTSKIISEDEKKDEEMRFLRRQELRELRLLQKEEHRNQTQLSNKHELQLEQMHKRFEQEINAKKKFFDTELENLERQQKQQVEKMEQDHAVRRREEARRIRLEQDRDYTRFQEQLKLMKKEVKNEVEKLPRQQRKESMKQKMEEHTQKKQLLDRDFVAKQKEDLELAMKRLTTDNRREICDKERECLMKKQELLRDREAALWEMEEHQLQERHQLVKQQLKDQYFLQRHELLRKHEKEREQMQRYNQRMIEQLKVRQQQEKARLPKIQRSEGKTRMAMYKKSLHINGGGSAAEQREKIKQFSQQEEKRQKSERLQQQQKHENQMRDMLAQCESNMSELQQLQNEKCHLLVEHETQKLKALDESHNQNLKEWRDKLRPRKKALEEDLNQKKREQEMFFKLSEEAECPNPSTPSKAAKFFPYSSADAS
Chain of UniProt P36897 (whole entry, looked up): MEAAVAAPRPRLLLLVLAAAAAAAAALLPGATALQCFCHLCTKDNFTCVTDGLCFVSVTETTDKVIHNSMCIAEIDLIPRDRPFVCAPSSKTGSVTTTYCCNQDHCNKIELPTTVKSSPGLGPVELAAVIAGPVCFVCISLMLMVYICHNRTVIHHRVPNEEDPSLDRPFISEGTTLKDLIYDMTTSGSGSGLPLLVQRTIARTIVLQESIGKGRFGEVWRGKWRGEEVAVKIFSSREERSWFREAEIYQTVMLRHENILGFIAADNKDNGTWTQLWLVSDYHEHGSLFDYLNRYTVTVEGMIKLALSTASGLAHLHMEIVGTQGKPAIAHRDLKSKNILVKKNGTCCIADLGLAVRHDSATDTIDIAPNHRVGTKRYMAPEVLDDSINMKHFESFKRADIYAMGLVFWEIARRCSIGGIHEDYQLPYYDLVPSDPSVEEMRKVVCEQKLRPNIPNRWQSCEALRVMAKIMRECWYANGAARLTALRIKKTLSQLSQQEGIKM
Chain of UniProt P51812 (whole entry, looked up): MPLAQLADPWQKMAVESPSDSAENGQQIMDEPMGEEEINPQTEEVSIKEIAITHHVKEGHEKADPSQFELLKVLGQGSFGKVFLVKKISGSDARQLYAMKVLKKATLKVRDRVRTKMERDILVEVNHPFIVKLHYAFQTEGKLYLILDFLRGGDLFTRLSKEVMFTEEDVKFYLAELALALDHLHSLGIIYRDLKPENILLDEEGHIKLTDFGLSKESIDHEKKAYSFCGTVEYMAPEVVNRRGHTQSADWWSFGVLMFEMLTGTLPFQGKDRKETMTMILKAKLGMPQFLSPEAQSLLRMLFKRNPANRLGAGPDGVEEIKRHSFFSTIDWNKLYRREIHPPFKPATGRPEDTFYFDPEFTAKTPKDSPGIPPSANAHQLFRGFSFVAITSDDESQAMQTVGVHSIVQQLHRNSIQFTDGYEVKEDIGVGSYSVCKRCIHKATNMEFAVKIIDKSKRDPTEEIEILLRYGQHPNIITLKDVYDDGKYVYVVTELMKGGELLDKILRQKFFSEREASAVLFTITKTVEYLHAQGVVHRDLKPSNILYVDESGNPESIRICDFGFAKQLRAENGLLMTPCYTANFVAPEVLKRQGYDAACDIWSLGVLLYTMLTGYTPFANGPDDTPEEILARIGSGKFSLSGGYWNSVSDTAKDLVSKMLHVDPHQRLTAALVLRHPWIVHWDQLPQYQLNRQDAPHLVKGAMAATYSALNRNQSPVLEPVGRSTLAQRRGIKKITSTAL
Chain of UniProt Q9BVS4 (whole entry, looked up): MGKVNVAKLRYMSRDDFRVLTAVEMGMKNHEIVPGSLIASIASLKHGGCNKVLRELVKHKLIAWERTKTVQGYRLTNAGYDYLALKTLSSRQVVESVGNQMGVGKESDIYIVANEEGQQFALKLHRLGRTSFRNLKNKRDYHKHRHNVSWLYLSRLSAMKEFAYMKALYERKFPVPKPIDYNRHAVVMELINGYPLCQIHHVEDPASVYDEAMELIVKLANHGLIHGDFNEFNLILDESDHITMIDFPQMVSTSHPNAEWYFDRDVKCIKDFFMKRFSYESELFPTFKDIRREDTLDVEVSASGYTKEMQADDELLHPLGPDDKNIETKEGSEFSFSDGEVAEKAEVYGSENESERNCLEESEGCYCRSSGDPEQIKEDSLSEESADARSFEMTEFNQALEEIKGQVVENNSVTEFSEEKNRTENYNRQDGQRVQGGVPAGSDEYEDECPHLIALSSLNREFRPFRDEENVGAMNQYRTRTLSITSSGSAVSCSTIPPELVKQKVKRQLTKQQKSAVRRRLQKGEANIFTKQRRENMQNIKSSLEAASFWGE

Sample 1
Compound: O=C1NCCc2[nH]c(-c3ccncc3)cc21
Cell line: HH
Technique: CCK-8
Endpoint: viability
500 nM: 95.8% and 88.7% and 95.4%
50 nM: 98.2% and 94.4% and 97.9%
1000 nM: 39.9% and 29.5% and 46.1%
10000 nM: 0%

Sample 2
Compound: O=C(O)[C@@H]1[C@@H](Cn2nnc3ccccc3c2=O)CC[C@H]1C(=O)c1ccc(OCCC2CCOCC2)cc1
Read-out: cell-free assay
Technique: competition with immobilised ligand
Concentration: 1 µM
Endpoint: remaining binding
PHKG1 (Homo sapiens, UniProt Q16816): 100%
EPHB2 (Homo sapiens, UniProt P29323): 100%
MAP3K12 (Homo sapiens, UniProt Q12852): 98%
FLT3 (Homo sapiens, UniProt P36888, D835V/ITD): 100%
Ribosomal protein S6 kinase alpha-3, C-terminal kinase domain (RPS6KA3, Homo sapiens, UniProt P51812): 85%
PAK5 (Homo sapiens, UniProt Q9P286): 96%
MAP3K15 (Homo sapiens, UniProt Q6ZN16): 54%
PIK3CA (Homo sapiens, UniProt P42336, H1047Y): 94%
MAP4K1 (Homo sapiens, UniProt Q92918): 91%
MINK1 (Homo sapiens, UniProt Q8N4C8): 100%
CDK8 (Homo sapiens, UniProt P49336): 91%
GRK4 (Homo sapiens, UniProt P32298): 100%
RIOK2 (Homo sapiens, UniProt Q9BVS4): 88%
PTK2 (Homo sapiens, UniProt Q05397): 100%

Sample 3
Structure (SMILES): O=c1cc(-c2cccc3c2Sc2ccccc2S3)oc(N2CCOCC2)c1
Read-out: enzyme activity
Action: inhibitor
Concentration: 0.5 µM
Relative to: control
Endpoint: remaining activity
PRKCA (Homo sapiens, UniProt P17252): 80.3%
Cyclin-dependent kinase 5, with p25 (CDK5, Homo sapiens, UniProt Q00535): 96.8%
STK10 (Homo sapiens, UniProt O94804): 97.1%
MAP3K3 (Homo sapiens, UniProt Q99759): 137%
GRK3 (Homo sapiens, UniProt P35626): 100%
NEK2 (Homo sapiens, UniProt P51955): 103%
Tyrosine-protein kinase Lyn, isoform B (LYN, Homo sapiens, UniProt P07948): 116%
CHEK2 (Homo sapiens, UniProt O96017): 102%
OXSR1 (Homo sapiens, UniProt O95747): 96.1%
DAPK1 (Homo sapiens, UniProt P53355): 82.7%
PRKACA (Homo sapiens, UniProt P17612): 99.6%
MAPK9 (Homo sapiens, UniProt P45984): 97.7%
CAMKK2 (Homo sapiens, UniProt Q96RR4): 133%
DAPK2 (Homo sapiens, UniProt Q9UIK4): 98.8%
CAMK2D (Homo sapiens, UniProt Q13557): 104%
TGFBR2 (Homo sapiens, UniProt P37173): 93.4%
Protein kinase C beta type, isoform beta-I (PRKCB, Homo sapiens, UniProt P05771): 103%
STK39 (Homo sapiens, UniProt Q9UEW8): 84%
Cyclin-dependent kinase 4, with cyclin D1 (CDK4, Homo sapiens, UniProt P11802): 112%
TGFBR1 (Homo sapiens, UniProt P36897): 98%

Single results of other studies
Cell line: THP-1
Read-out: host cell growth
Concentration: 20 µM
C[C@@H]1[C@H](O)[C@@H](C)/C=C/C=C/C=C/C=C/C=C/C=C/C=C/[C@H](O[C@@H]2O[C@H](C)[C@@H](O)[C@H](N)[C@@H]2O)C[C@@H]2O[C@](O)(C[C@@H](O)C[C@@H](O)[C@H](O)CC[C@@H](O)C[C@@H](O)CC(=O)O[C@H]1C)C[C@H](O)[C@H]2C(=O)O  inhibition: 103%
CCCCCCCCCCCCCCCCOP(=O)([O-])OCC[N+](C)(C)C  inhibition: 74% and 70% and 76%

A few entries again (sample 3):
DAPK1 (Homo sapiens, UniProt P53355): 82.7%
MAP3K3 (Homo sapiens, UniProt Q99759): 137%
TGFBR2 (Homo sapiens, UniProt P37173): 93.4%
Cyclin-dependent kinase 4, with cyclin D1 (CDK4, Homo sapiens, UniProt P11802): 112%
Cyclin-dependent kinase 5, with p25 (CDK5, Homo sapiens, UniProt Q00535): 96.8%
MAPK9 (Homo sapiens, UniProt P45984): 97.7%
PRKACA (Homo sapiens, UniProt P17612): 99.6%
